Published values from different studies.
Lines come from different studies, so protocols differ. ± gives the spread as reported. In brackets after ≈: the same amount, converted by molar mass.

COc1cc(OC)c(/C=C/S(=O)(=O)Cc2ccc(OC)c(NCC(=O)O)c2)c(OC)c1
Vss/F (cancer patients, phase I, plasma; oral, 280 mg twice daily, day 21 cycle 1): 1060 ± 603 L

CC(=O)NCCCC[C@H](NC(=O)[C@@H](NC(C)=O)C(C)C)C(=O)N[C@@H](CC(C)C)C(=O)NC(C)(C)C(=O)N[C@H](C(=O)N[C@@H](CCCCNC(C)=O)C(=O)N[C@@H](CC(C)C)C(N)=O)C(C)C
helicity (far-UV circular dichroism; trifluoroethanol; 100 µM, 25 °C): 53%

Oc1ccc(C=Cc2cc(O)cc(O)c2)cc1
mean residence time (male ApcMin/+ mice, plasma; oral gavage, 45 µg/kg, added: BaP 100 µg/kg): 1.6 ± 0.018 h

CC(C)=CCC[C@](C)(O[C@@H]1O[C@H](CO)[C@@H](O)[C@H](O)[C@H]1O)[C@H]1CC[C@]2(C)[C@@H]1[C@H](O)C[C@@H]1[C@@]3(C)CC[C@H](O)C(C)(C)[C@@H]3[C@@H](O[C@@H]3O[C@H](CO)[C@@H](O)[C@H](O)[C@H]3O)C[C@]12C
post-preparative stability accuracy (rat, extracted plasma QC samples; 0.5 µg/mL, 24 h, 15 °C, autosampler): 93.6 ± 6.3%

Cc1cc(Nc2ccc3ncn([C@@H]4CCc5ccc(F)cc54)c3n2)[nH]n1.Cl.Cl
AUC(0-24h) (Sprague-Dawley rats, both sexes, plasma; oral, 15 mg/kg, 14-day dosing): 4000 to 6000 ng·h/mL

O=C(Nc1c(Cl)c[n+]([O-])cc1Cl)c1ccc(OC(F)F)c(OCC2CC2)c1
Ctrough (human patients, age 6-11 years, plasma; topical, 0.3% cream once daily, week 8): 4.3 ng/mL

Cn1c(-c2ccc(C(N)=O)cc2F)nnc1C(C)(C)Oc1c(F)cc(Cl)cc1F
Tmax median (young Japanese adults, plasma; oral, 50 mg single dose, day 1, high-dose multiple-dose study): 1.25 h

COc1ccc2nc([S@@+]([O-])Cc3ncc(C)c(OC)c3C)[nH]c2c1
adverse events (human healthy; 40 mg): 8%

Cc1cnc(NC(=O)C2=C(O)c3ccccc3S(=O)(=O)N2C)s1
hepatocyte vacuolization score (Sprague-Dawley rat, male, liver; oral, 12 mg/kg, 24 h, single high dose; direction not given): 0

CCCC[C@H](NC(C)=O)C(=O)N[C@H]1CCC(=O)NC[C@@H](C(=O)N[C@@H](Cc2c[nH]c3ccccc23)C(N)=O)NC(=O)[C@H](CCCNC(=N)N)NC(=O)[C@@H](Cc2ccccc2)NC(=O)[C@H](Cc2c[nH]cn2)NC1=O
AUC(0-last) (beagle dog, male, plasma; subcutaneous, 40.0 mg/kg daily, day 14): 4760 ng·h/mL

CNCc1ccc(-c2[nH]c3cc(F)cc4c3c2CCNC4=O)cc1
volume of distribution (human cancer patients, plasma; intravenous, 18 mg/m2, day 4, added: temozolomide 200): 343 L

CC(=O)O[C@H]1C(=O)[C@@]2(C)[C@H]([C@H](OC(=O)c3ccccc3)[C@]3(O)C[C@H](OC(=O)[C@H](O)[C@@H](NC(=O)c4ccccc4)c4ccccc4)C(C)=C1C3(C)C)[C@]1(OC(C)=O)CO[C@@H]1C[C@@H]2O
volume of distribution (Vz) (noncompartmental analysis; human, plasma; intravenous, 80 mg/m^2, day 8, DL2 geometric mean, added: onalespib 150 mg/m^2): 226 ± 71.9 L/m²

colistin B methanesulfonate
total body clearance (one-compartment PK model; rat; i.p., 20 mg/kg colistin base activity): 9.69 ± 3.95 mL/min/kg

COc1cc2nccc(Oc3ccc(NC(=O)C4(C(=O)Nc5ccc(F)cc5)CC4)cc3)c2cc1OC
right ventricular systolic pressure (male Sprague-Dawley rat, hypoxic pulmonary hypertension; subcutaneous, 20 mg/kg, 28 days post-hypoxia, 3 weeks hypoxia): 36.2 ± 3.4 mmHg

CC(C)=CCC[C@](C)(O[C@@H]1O[C@H](CO)[C@@H](O)[C@H](O)[C@H]1O)[C@H]1CC[C@]2(C)[C@@H]1[C@H](O)C[C@@H]1[C@@]3(C)CC[C@H](O)C(C)(C)[C@@H]3[C@@H](O[C@@H]3O[C@H](CO)[C@@H](O)[C@H](O)[C@H]3O[C@@H]3O[C@@H](C)[C@H](O)[C@@H](O)[C@H]3O)C[C@]12C
AUC(0-36 h) (Sprague Dawley rat, male, plasma; oral, 45 mg/kg, in white ginseng extract): 2200 ± 400 ng·h/mL

O=C(CCCN1CCCN(c2ccc(Cl)cc2)CC1)c1ccc(F)cc1
mean residence time (male Sprague-Dawley rats, plasma; intravenous, 1.7 mg/kg, added: HAL 0.7 mg/kg plus BCT 0.1 mg/kg): 0.674 ± 0.205 h

O=C(CCCCCCC(=O)Nc1ccccc1)NO
AUC(0-7 h) (patients, serum; oral, 400 mg, cycle 1 day 2, added: flavopiridol 30+30 mg/m2): 5.82 µM·h

COc1cccc(N2CCN(C3=Nc4c(F)cccc4[C@H](CC(=O)O)N3c3cc(C(F)(F)F)ccc3OC)CC2)c1
terminal half-life (UHPLC-MS/MS; healthy women, plasma; intravenous infusion, 720 mg single dose, 60 min infusion, HPβCD formulation): 11.6 ± 4.11 h

Nc1nc2cccc(-c3ccc(CN4CCS(=O)(=O)CC4)cc3)n2n1
metabolite/parent plasma concentration (human, plasma; 30 to 300 mg filgotinib, steady state; reference: compound over filgotinib): ~13 fold

GGTFXGYWADLXAF (side-chain stapled)
helicity (CD; peptide, water/acetonitrile 1:1; 10 µM, non-stabilised peptide): 17%

CCCCCCCC(=O)OC[C@H](NC(=O)[C@H](CO)NC(=O)CN)C(=O)N[C@H](C(=O)N[C@@H](CC(C)C)C(=O)N[C@@H](CO)C(=O)N1CCC[C@H]1C(=O)N[C@@H](CCC(=O)O)C(=O)N[C@@H](Cc1c[nH]cn1)C(=O)N[C@@H](CCC(N)=O)C(=O)N[C@@H](CCCNC(=N)N)C(=O)N[C@H](C(=O)N[C@@H](CCC(N)=O)C(=O)N[C@@H](CCC(N)=O)C(=O)N[C@@H](CCCNC(=N)N)C(=O)N[C@@H](CCCCN)C(=O)N[C@@H](CCC(=O)O)C(=O)N[C@@H](CO)C(=O)N[C@@H](CCCCN)C(=O)N[C@@H](CCCCN)C(=O)N1CCC[C@H]1C(=O)N1CCC[C@H]1C(=O)N[C@@H](C)C(=O)N[C@@H](CCCCN)C(=O)N[C@@H](CC(C)C)C(=O)N[C@@H](CCC(N)=O)C(=O)N1CCC[C@H]1C(=O)N[C@@H](CCCNC(=N)N)C(=O)O)C(C)C)[C@@H](c1ccccc1)c1c[nH]c2ccccc12
HPLC retention (RP-HPLC Kinetex Biphenyl; acetonitrile/water TFA gradient): 32.8 %B

CC[C@H](C)[C@@H]1NC(=O)[C@H](Cc2ccc(O)cc2)NC(=O)[C@@H](N)CSSC[C@@H](C(=O)N2CCC[C@H]2C(=O)N[C@@H](CC(C)C)C(=O)NCC(N)=O)NC(=O)[C@H](CC(N)=O)NC(=O)[C@H](CCC(N)=O)NC1=O
AUC above baseline (ELISA; knock-out male mice lacking compound, plasma; intraperitoneal, 12 µg total, incremental area over baseline): 12000 ± 1950 pg·30 min/sample

C[C@H]1CNCCCN1S(=O)(=O)c1cccc2cncc(F)c12
recovery time (corneal endothelial cell morphology; human male; topical ocular, 1 drop per eye twice daily): 6 h

CC[C@H](C)[C@H](NC(=O)CNC(=O)[C@H](Cc1ccccc1)NC(C)=O)C(=O)N[C@@]1(C)CCCC=CCCC[C@@](C)(C(=O)N[C@@H](CC(C)C)C(N)=O)NC(=O)[C@H](CC(N)=O)NC(=O)[C@H]([C@@H](C)O)NC(=O)[C@H](CC(C)C)NC1=O
α-helicity (circular dichroism; PBS with 50% trifluoroethanol; 0.3 mg/mL, pH 7.4, 25 °C): 20.6%

CS(=O)(=O)n1cc2c(n1)CN([C@H]1CO[C@H](c3cc(F)ccc3F)[C@@H](N)C1)C2
concentration at 168 h (healthy male human, plasma; oral, 50 mg single, fasted, geometric mean): 26.7 nM

Oc1ccc(/C=C/c2cc(O)cc(O)c2)cc1
AUC(0-inf) (male Sprague-Dawley rat, plasma; intravenous, 10 mg/kg): 1870 ng·h/mL

Cc1nc2cccc(OCC(C)(C)C(=O)NC(C)C)c2c(N)c1C(=O)O
Cmax (Sprague-Dawley rat both sexes, plasma; dietary, 100 mg/kg/day, day 90): 162 ng/mL

CN1CC[C@@H](NC(=O)Nc2ccc(C#N)cc2)C[C@@H]1c1nc2ccccc2[nH]1
unbound Cmax (human, normal hepatic function, plasma; oral, 100 mg, single dose, fasted): 75.5 ± 19.1 ng/mL

COC(=O)N[C@H](C(=O)N[C@@H](Cc1ccccc1)[C@@H](O)CN(Cc1ccc(-c2ccccn2)cc1)NC(=O)[C@@H](NC(=O)OC)C(C)(C)C)C(C)(C)C
free drug permeability (modified PAMPA Franz cell; phosphate buffer with HPMCAS; stock 5 mg/mL, 3 h, 37 °C, 193 nm system, 300 rpm, added: 3% BSA receiver): 56 ± 2 ×10⁻⁶ cm/s

CNC(=O)c1ccc(-c2cnc3ncc(Cc4ccc5ncccc5c4)n3n2)cc1F
Cmax (geometric mean) (human, moderate hepatic impairment (Child-Pugh B), plasma; oral, 200 mg single dose): 1440 ng/mL

CCN(CC)CCNC(=O)c1c(C)[nH]c(/C=C2\C(=O)Nc3ccc(F)cc32)c1C
maximum trough plasma concentration (human, plasma; oral, 15 mg/m2, day 21): 64.2 ng/mL

CNc1nc(Nc2ccc(-n3cnc(C)n3)c(OC)c2)nc2c1CC[C@H]2c1ccc(F)cc1
AUC(0-inf) (human, plasma; oral, 100 mg, single dose, healthy volunteers): 5140 ng·h/mL

OC[C@H]1O[C@@H](c2ccc(F)c(Cc3cc4ccccc4s3)c2)[C@H](O)[C@@H](O)[C@@H]1O
tissue/plasma ratio (Wistar rat, male, small intestine; oral, dose not given, 8 h; reference: small intestine over plasma concentration): 348 ± 105

CCCOc1ccc([C@H]2CNC(=O)N2c2ccc3[nH]cnc3c2)cc1
AUC(0-inf) (human, plasma; oral, 200 mg, single dose, fasted): 1350 ng·h/mL

Cc1[nH]c(=O)c(CNC(=O)c2cn[nH]c2)c2c1CCCC2
kinetic solubility (U-HPLC; 20% DMSO in water): 246 µg/mL (≈ 858 µM)

Repeated from above:
CC(=O)O[C@H]1C(=O)[C@@]2(C)[C@H]([C@H](OC(=O)c3ccccc3)[C@]3(O)C[C@H](OC(=O)[C@H](O)[C@@H](NC(=O)c4ccccc4)c4ccccc4)C(C)=C1C3(C)C)[C@]1(OC(C)=O)CO[C@@H]1C[C@@H]2O
volume of distribution (Vz) (noncompartmental analysis; human, plasma; intravenous, 80 mg/m^2, day 8, DL2 geometric mean, added: onalespib 150 mg/m^2): 226 ± 71.9 L/m²

colistin B methanesulfonate
total body clearance (one-compartment PK model; rat; i.p., 20 mg/kg colistin base activity): 9.69 ± 3.95 mL/min/kg
